Measured values gathered from unrelated publications.
Each numbered part is a random draw from the data of one study; scales do not carry over between parts.
UniProt Q15759, sequence (whole entry, looked up): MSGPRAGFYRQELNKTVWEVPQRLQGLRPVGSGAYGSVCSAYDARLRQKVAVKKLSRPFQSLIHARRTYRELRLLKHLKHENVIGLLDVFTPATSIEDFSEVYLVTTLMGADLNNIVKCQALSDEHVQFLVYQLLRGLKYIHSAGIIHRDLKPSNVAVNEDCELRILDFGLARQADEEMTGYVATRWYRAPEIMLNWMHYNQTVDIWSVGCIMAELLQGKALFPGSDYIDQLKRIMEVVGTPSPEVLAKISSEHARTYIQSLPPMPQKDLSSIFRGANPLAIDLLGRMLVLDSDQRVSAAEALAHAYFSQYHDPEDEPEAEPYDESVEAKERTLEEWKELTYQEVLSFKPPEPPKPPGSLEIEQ
UniProt P21917, sequence (whole entry, looked up): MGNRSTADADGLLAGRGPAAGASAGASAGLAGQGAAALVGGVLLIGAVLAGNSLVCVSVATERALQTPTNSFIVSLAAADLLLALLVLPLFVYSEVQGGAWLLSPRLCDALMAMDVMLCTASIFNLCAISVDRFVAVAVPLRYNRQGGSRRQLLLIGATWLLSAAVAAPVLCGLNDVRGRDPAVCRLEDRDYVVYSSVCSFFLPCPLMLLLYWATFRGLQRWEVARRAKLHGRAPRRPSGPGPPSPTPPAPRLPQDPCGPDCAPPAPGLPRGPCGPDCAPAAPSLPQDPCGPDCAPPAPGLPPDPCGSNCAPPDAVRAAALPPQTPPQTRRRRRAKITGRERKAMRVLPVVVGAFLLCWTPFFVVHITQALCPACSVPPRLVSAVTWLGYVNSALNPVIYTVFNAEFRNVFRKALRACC
UniProt P42681, sequence (whole entry, looked up): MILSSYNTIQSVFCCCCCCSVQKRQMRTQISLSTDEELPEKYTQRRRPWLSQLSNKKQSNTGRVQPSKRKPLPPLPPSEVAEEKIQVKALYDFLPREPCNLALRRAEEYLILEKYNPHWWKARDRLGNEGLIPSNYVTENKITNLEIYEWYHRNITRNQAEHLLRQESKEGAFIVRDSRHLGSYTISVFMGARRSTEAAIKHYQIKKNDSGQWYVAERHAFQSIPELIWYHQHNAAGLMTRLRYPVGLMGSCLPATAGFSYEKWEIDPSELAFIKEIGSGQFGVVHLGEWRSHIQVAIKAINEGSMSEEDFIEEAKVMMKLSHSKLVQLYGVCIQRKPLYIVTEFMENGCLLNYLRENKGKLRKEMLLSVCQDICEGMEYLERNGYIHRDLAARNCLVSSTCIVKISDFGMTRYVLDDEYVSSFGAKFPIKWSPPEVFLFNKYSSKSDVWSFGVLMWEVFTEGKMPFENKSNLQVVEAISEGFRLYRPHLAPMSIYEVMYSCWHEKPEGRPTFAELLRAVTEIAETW
UniProt Q16566, sequence (whole entry, looked up): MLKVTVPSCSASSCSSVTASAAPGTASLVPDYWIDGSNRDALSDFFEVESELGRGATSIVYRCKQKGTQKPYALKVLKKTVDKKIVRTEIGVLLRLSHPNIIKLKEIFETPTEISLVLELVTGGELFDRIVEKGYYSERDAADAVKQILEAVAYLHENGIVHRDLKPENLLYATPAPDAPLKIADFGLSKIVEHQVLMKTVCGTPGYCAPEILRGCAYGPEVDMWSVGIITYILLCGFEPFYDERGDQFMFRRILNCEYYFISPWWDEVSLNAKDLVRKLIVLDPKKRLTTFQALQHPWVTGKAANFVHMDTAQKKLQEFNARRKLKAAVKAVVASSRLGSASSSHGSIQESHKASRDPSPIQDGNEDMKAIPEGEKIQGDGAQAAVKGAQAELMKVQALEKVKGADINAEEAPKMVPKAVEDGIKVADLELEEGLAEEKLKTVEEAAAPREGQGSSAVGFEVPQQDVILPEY
UniProt Q9H4B4, sequence (whole entry, looked up): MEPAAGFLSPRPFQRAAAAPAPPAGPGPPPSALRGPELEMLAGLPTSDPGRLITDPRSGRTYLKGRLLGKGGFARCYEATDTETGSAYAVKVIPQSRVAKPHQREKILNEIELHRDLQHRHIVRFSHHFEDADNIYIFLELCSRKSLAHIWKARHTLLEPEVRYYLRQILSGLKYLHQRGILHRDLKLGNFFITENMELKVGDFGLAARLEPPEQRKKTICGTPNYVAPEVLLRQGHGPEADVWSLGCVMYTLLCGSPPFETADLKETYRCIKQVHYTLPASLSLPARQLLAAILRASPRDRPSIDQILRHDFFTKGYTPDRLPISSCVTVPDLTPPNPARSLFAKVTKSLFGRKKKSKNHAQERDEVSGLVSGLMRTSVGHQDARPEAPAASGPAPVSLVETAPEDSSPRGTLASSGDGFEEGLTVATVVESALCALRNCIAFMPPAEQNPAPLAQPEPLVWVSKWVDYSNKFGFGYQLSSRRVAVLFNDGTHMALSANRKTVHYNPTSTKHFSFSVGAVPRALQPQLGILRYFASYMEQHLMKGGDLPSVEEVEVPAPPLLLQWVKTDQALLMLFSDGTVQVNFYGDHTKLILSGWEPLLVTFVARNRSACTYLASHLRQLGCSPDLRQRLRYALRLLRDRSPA
UniProt O75676, sequence (whole entry, looked up): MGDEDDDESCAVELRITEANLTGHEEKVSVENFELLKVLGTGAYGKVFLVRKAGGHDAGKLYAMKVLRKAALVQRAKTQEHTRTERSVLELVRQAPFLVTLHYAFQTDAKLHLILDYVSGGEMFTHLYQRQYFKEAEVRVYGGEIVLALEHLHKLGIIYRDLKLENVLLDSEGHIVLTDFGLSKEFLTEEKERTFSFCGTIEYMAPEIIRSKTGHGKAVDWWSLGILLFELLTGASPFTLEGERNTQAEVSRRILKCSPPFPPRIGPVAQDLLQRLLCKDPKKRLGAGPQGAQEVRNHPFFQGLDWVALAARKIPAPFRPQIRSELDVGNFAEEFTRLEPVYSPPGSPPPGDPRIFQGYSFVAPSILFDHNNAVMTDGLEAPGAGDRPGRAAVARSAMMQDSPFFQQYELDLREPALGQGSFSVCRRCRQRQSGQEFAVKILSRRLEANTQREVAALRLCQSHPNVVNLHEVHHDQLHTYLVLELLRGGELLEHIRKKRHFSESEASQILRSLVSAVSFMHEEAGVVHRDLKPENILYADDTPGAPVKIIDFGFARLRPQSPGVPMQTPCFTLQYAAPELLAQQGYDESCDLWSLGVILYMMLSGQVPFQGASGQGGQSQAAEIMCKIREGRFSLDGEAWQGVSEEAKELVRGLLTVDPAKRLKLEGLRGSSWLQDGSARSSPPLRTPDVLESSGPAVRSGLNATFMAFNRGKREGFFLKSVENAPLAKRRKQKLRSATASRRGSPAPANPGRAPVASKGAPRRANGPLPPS
UniProt P32298, sequence (whole entry, looked up): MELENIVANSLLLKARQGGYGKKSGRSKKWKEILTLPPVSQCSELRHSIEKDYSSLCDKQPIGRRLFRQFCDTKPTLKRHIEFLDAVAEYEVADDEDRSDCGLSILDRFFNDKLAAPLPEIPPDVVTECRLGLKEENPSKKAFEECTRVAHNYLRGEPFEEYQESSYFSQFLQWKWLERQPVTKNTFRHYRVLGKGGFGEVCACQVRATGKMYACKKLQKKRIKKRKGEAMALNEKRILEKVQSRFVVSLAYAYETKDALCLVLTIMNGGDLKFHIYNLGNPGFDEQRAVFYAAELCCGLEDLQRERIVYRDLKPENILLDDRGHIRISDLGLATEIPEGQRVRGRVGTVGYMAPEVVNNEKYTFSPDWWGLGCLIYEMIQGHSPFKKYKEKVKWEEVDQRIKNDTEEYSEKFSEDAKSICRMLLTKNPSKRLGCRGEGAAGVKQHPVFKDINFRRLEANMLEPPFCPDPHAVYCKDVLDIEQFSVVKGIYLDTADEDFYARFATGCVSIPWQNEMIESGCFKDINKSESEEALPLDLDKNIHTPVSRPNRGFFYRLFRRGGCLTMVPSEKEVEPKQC
UniProt P06493, sequence (whole entry, looked up): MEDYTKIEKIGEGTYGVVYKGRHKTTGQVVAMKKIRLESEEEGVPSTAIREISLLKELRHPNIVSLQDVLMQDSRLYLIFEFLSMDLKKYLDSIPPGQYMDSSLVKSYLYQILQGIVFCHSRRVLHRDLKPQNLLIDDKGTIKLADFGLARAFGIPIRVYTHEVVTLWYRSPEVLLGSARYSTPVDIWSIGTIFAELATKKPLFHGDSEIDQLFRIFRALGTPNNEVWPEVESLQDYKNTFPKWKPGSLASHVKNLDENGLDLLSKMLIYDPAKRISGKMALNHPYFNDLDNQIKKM
UniProt Q5BJF2, sequence (whole entry, looked up): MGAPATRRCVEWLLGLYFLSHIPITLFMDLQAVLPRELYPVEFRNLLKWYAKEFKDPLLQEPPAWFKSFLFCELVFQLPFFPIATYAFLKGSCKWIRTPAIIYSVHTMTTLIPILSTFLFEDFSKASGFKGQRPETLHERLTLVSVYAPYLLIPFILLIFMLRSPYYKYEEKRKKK

Series 1 — organism: Plasmodium berghei; mode: inhibitor; cells: Huh-7; strain: GFP-expressing, liver stage; concentration: 10 µM; time: 24 h; relative to: untreated control
CCCc1nc(C)c2c(O)nc(-c3cc(S(=O)(=O)N4CCN(CC)CC4)ccc3OCC)nn12 has an infection rate of 63.3%.
The infection rate of COCCCOc1ccnc(C[S+]([O-])c2nc3ccccc3[nH]2)c1C (stereo not shown) is reported as 100%.
CN[C@@H]1[C@H](O[C@H]2[C@H](O[C@H]3[C@H](O)[C@@H](O)[C@H](N=C(N)N)[C@@H](O)[C@@H]3N=C(N)N)O[C@@H](C)[C@]2(O)C=O)O[C@@H](CO)[C@H](O)[C@H]1O has an infection rate of 109%.
NC(=O)c1cnccn1 gave an infection rate of 83.6%.
The infection rate of COCCOC(=O)C1=C(C)NC(C)=C(C(=O)OC(C)C)C1c1cccc([N+](=O)[O-])c1 (stereo not shown) is reported as 98.6%.
CCOC(=O)[C@H](CCc1ccccc1)N[C@@H](C)C(=O)N1[C@H](C(=O)O)C[C@@H]2CCC[C@@H]21 gave an infection rate of 102%.
CC(Oc1ccccc1)C(=O)N[C@@H]1C(=O)N2[C@@H]1SC(C)(C)[C@@H]2C(=O)O (stereo partly shown) gave an infection rate of 100%.
The infection rate of C#CC1(O)CC[C@H]2[C@@H]3CCC4=CC(=O)CC[C@@H]4[C@H]3CC[C@@]21CC (mixture of isomers) is reported as 102%.
For O=C(O)c1cc(/N=N/c2ccc(S(=O)(=O)Nc3ccccn3)cc2)ccc1O, the infection rate was 112%.
The infection rate of Cc1onc(-c2ccccc2)c1C(=O)N[C@@H]1C(=O)N2[C@@H]1SC(C)(C)[C@@H]2C(=O)O is reported as 98%.
CCCc1nn(C)c2c(=O)[nH]c(-c3cc(S(=O)(=O)N4CCN(C)CC4)ccc3OCC)nc12 gave an infection rate of 73.3%.

Series 2 — mode: antagonist
Target: Beta-1 adrenergic receptor (ADRB1, Homo sapiens, UniProt P08588)
UniProt P08588, sequence (whole entry, looked up): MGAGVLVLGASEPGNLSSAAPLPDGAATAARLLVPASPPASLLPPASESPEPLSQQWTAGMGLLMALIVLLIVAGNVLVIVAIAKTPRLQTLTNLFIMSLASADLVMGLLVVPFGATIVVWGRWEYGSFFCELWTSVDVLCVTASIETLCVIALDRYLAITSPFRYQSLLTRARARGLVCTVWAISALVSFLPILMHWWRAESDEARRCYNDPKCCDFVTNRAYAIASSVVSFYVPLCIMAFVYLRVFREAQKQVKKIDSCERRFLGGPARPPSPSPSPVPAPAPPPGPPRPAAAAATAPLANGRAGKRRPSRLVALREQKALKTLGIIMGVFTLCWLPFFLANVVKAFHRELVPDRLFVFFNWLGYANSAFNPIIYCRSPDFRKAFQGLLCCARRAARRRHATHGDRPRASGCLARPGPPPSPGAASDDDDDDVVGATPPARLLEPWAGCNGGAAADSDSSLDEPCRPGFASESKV
Cc1noc2c(-c3ccc(N4CCOCC4)cc3)cc(-c3cccnc3)nc12 gave an IC50 of 25.1 µM.
For COc1ccccc1-c1nccc2c(=O)cc(N(C)C)oc12, the IC50 was ≥ 100 µM.
For COc1ccc(-c2ccc(Cn3ccnc3)cn2)c2ccc(C)nc12, the IC50 was ≥ 100 µM.
For COc1ccc(Cc2nnc(SCc3cc(=O)oc4ccc5ccccc5c34)o2)cc1, the IC50 was ≥ 100 µM.
The IC50 of CC[C@H](NC(C)C)[C@H](O)c1ccc(O)c2[nH]c(=O)ccc12 (racemic) is reported as ≥ 100 µM.
The IC50 of c1cnc(OCC2CCCN(c3ccc4ccccc4n3)C2)nc1 (stereo not shown) is reported as ≥ 100 µM.
For O=C(Nc1cccc(-c2ccc(N3CCOCC3)nn2)c1)Nc1ccccc1Cl, the IC50 was ≥ 100 µM.
With Cc1noc(C)c1-c1nccc2c(=O)cc(N(C)c3ccccc3)oc12 the IC50 was ≥ 100 µM.
CCN(CC)c1ccc2c(c1)OC(=O)/C(=C\Nc1ccc(CC(=O)O)c(-c3c4c(nc5ccccc35)CCC(C(=O)NN)C4)c1)C2=O (stereo not shown) gave an IC50 of ≥ 100 µM.

Series 3 — organism: Sarcocystis neurona; observed: parasite activity; concentration: 10 µM; time: 96 h
For Nc1cc(N2CCCCC2)nc(N)[n+]1[O-], activity class read “inactive”.
Oc1ncnc2[nH]ncc12: activity class “inactive”.
Nc1nnc(-c2cccc(Cl)c2Cl)c(N)n1: activity class “inactive”.
CC(C)(C)NCC(O)COc1cccc2c1CC(O)C(O)C2 (stereo not shown) — result for activity class: “inactive”.
CCOc1cc(N)c(Cl)cc1C(=O)NCC1CN(Cc2ccc(F)cc2)CCO1 (stereo not shown): activity class “inactive”.
For O=C(O)C[C@H](O)C[C@H](O)/C=C/c1c(C2CC2)nc2ccccc2c1-c1ccc(F)cc1, activity class read “inactive”.
OC(c1cc(C(F)(F)F)nc2c(C(F)(F)F)cccc12)C1CCCCN1 (stereo not shown) — result for activity class: “inactive”.
For CCCNC(C)C(=O)Nc1ccccc1C (stereo not shown), activity class read “inactive”.

Series 4 — SMILES: c1ccc(N2CCN(Cc3nc4ccccc4[nH]3)CC2)nc1; observed: binding; technique: radioligand binding
It gave 0.319 µM for Ki (DRD4 (Homo sapiens, UniProt P21917)).
It gave 6.22 µM for Ki (TMEM97 (Homo sapiens, UniProt Q5BJF2)).
It gave 6.71 µM for Ki (HRH1 (Homo sapiens, UniProt P35367)).

Series 5 — SMILES: COc1ccc(COc2ccc(Cc3cnc(N)nc3N)cc2OC)cc1; observed: enzyme activity; mode: inhibitor; concentration: 0.5 µM; relative to: control
It gave 107% for remaining activity (RPS6KA4 (Homo sapiens, UniProt O75676)).
Cyclin-dependent kinase 1, with cyclin A (CDK1, Homo sapiens, UniProt P06493) — remaining activity: 98.7%.
For CDC42BPB (Homo sapiens, UniProt Q9Y5S2): remaining activity read 96.9%.
It gave 95.9% for remaining activity (PLK3 (Homo sapiens, UniProt Q9H4B4)).
The remaining activity was 104% (PRKG2 (Homo sapiens, UniProt Q13237)).
CAMK4 (Homo sapiens, UniProt Q16566) — remaining activity: 94.7%.
DCLK2 (Homo sapiens, UniProt Q8N568) — remaining activity: 101%.
For PNCK (Homo sapiens, UniProt Q6P2M8): remaining activity read 98.4%.
MAP2K1 (Homo sapiens, UniProt Q02750) — remaining activity: 98.6%.
The remaining activity was 106% (MAPK14 (Homo sapiens, UniProt Q16539)).
It gave 102% for remaining activity (AKT2 (Homo sapiens, UniProt P31751)).
For DDR2 (Homo sapiens, UniProt Q16832): remaining activity read 99.6%.
MAPK11 (Homo sapiens, UniProt Q15759) — remaining activity: 98.7%.
For ROCK1 (Homo sapiens, UniProt Q13464): remaining activity read 100%.
It gave 106% for remaining activity (GRK4 (Homo sapiens, UniProt P32298)).
The remaining activity was 98.1% (NEK3 (Homo sapiens, UniProt P51956)).
CLK3 (Homo sapiens, UniProt P49761) — remaining activity: 98.3%.
For PAK3 (Homo sapiens, UniProt O75914): remaining activity read 102%.
The remaining activity was 110% (MAPK1 (Homo sapiens, UniProt P28482)).
It gave 101% for remaining activity (TXK (Homo sapiens, UniProt P42681)).
The remaining activity was 86.5% (CLK4 (Homo sapiens, UniProt Q9HAZ1)).
It gave 76.1% for remaining activity (MET (Homo sapiens, UniProt P08581)).
It gave 102% for remaining activity (Cyclin-dependent kinase 9, with cyclin K (CDK9, Homo sapiens, UniProt P50750)).
For MARK4 (Homo sapiens, UniProt Q96L34): remaining activity read 89.7%.

Excerpt of the above (series 3):
OC(c1cc(C(F)(F)F)nc2c(C(F)(F)F)cccc12)C1CCCCN1 (stereo not shown) — result for activity class: “inactive”.
For O=C(O)C[C@H](O)C[C@H](O)/C=C/c1c(C2CC2)nc2ccccc2c1-c1ccc(F)cc1, activity class read “inactive”.
For Nc1cc(N2CCCCC2)nc(N)[n+]1[O-], activity class read “inactive”.
For CCCNC(C)C(=O)Nc1ccccc1C (stereo not shown), activity class read “inactive”.
